Measurements from different studies.
Numbered parts are unrelated; each lists some results of a single study. ± gives the spread as reported.
UniProt P51956, sequence (whole entry, looked up): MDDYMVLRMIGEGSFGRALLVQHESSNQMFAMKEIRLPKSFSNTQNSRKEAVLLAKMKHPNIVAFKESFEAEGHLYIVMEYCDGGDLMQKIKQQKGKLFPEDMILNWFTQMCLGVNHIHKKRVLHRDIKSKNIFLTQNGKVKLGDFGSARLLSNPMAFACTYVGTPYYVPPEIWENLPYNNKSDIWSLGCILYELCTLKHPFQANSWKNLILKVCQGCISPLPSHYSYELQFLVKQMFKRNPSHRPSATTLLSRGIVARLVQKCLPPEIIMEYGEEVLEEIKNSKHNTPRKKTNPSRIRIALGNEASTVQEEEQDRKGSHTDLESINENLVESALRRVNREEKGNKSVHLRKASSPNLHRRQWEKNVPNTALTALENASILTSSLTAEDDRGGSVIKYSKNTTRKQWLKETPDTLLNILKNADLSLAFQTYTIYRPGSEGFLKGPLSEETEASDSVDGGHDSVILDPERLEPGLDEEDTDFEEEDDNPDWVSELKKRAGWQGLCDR
UniProt P23458, sequence (whole entry, looked up): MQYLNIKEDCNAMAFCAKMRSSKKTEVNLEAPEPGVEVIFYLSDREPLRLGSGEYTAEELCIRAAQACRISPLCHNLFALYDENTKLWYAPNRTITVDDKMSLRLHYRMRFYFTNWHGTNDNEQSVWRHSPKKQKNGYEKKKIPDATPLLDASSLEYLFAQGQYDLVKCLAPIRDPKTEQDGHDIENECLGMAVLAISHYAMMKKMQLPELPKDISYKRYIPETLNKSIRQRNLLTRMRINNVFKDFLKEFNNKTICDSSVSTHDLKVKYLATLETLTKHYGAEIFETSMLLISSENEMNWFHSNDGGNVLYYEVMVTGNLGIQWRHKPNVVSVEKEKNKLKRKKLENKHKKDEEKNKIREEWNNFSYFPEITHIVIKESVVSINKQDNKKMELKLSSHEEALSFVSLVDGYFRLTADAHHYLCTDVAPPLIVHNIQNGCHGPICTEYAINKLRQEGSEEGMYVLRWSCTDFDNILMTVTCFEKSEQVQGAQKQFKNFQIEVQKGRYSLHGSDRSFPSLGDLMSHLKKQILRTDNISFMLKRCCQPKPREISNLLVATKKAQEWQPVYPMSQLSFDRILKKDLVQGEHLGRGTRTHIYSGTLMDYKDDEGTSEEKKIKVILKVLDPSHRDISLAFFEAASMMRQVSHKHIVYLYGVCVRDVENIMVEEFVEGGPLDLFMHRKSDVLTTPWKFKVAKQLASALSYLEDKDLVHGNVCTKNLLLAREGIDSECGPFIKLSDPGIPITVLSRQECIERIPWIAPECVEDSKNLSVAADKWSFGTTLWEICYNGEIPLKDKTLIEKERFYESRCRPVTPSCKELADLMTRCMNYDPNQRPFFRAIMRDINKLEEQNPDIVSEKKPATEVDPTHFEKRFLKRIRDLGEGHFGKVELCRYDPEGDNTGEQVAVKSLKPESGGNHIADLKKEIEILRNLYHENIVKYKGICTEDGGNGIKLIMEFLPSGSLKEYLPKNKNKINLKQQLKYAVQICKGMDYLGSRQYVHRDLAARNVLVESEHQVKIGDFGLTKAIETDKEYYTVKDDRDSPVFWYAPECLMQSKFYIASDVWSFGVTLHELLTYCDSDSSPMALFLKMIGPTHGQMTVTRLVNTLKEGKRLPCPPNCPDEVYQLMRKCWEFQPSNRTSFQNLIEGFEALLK
UniProt P50750, sequence (whole entry, looked up): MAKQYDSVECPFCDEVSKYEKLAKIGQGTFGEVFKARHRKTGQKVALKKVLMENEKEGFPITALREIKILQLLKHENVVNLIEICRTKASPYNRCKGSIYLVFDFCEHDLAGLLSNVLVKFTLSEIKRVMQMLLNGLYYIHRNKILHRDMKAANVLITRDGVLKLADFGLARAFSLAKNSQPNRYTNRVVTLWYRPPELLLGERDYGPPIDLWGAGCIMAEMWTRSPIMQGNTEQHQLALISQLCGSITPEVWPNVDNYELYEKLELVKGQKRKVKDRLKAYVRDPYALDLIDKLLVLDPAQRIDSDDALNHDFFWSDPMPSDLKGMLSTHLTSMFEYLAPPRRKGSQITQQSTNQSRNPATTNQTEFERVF
UniProt P31751, sequence (whole entry, looked up): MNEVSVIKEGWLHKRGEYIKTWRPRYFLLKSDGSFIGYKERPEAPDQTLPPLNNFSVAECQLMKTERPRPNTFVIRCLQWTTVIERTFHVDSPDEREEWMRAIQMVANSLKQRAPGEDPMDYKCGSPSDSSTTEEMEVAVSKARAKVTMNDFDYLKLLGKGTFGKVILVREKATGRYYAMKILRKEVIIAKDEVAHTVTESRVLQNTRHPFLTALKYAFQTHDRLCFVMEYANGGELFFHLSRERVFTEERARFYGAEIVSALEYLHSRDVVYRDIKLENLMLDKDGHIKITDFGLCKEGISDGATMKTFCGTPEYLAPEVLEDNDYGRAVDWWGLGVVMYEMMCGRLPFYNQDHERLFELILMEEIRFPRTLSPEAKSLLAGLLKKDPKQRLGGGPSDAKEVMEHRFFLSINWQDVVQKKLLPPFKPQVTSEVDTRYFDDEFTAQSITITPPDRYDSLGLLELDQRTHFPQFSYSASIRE
UniProt Q9H4B4, sequence (whole entry, looked up): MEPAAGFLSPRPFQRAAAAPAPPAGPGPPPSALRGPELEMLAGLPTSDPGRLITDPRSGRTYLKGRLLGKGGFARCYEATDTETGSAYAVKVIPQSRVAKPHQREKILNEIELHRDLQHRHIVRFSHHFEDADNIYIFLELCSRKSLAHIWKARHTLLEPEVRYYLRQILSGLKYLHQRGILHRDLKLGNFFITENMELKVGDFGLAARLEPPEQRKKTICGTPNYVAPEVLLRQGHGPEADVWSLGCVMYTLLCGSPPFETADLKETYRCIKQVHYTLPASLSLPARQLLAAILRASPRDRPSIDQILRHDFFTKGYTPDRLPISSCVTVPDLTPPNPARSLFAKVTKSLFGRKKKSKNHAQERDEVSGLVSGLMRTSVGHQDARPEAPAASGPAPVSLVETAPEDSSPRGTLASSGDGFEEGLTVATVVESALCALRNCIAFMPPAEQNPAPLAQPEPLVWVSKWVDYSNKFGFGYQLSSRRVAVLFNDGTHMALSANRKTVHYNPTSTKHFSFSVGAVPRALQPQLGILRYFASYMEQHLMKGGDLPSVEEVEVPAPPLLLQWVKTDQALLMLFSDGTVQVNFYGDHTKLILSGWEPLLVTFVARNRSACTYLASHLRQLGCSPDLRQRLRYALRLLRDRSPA
UniProt P28482, sequence (whole entry, looked up): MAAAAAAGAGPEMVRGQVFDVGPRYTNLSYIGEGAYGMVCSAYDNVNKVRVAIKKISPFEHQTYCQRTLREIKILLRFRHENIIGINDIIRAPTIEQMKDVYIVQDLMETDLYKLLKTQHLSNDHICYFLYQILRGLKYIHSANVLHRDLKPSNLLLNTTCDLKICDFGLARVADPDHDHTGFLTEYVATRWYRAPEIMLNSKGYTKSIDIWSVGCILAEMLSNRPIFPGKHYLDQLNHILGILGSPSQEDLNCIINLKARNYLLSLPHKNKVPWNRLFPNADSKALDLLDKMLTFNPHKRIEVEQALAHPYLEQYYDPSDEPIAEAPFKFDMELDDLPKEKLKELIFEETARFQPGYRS
UniProt Q15759, sequence (whole entry, looked up): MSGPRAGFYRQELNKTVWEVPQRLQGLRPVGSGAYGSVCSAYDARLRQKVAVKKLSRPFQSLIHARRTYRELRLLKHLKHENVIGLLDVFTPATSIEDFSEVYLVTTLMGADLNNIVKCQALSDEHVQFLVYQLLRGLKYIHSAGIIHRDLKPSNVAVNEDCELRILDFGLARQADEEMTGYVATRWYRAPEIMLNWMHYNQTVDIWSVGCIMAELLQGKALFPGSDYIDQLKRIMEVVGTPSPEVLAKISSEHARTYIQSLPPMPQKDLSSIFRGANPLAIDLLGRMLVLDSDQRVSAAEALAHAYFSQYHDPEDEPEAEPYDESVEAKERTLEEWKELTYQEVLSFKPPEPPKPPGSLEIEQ
UniProt P48736, sequence (whole entry, looked up): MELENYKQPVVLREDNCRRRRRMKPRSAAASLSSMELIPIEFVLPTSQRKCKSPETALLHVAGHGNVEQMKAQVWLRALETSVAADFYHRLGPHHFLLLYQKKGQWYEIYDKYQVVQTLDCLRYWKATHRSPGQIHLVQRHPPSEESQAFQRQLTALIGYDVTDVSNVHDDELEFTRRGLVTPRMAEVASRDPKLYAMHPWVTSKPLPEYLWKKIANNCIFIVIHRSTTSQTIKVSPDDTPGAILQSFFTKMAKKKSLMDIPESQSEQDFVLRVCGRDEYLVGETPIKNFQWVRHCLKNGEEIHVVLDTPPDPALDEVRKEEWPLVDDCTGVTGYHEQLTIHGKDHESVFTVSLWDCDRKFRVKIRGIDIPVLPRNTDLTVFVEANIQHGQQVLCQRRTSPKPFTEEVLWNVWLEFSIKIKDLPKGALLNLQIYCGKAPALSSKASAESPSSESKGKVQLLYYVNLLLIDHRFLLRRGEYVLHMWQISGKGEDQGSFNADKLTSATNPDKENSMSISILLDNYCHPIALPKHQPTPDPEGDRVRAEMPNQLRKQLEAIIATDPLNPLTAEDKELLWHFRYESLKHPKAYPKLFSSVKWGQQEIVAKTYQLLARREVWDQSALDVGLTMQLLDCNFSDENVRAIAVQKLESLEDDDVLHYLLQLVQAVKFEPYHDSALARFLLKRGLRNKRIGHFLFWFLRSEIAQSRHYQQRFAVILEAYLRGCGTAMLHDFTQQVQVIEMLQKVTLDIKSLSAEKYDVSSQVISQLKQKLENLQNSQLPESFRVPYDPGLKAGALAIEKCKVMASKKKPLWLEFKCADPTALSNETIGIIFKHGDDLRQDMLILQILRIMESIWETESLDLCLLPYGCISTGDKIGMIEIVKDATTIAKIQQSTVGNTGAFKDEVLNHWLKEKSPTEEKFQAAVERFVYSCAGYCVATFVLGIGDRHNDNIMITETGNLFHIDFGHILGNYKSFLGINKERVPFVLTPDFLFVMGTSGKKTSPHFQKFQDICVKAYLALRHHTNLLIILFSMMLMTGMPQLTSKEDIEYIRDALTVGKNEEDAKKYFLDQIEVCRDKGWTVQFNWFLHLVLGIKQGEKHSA

Set 1 — organism: Plasmodium berghei; mode: inhibitor; cells: Huh-7; strain: GFP-expressing sporozoites, liver stage; tested at: 10 µM; time: 24 h; relative to: untreated control; endpoint: infection rate
SMILES = CC1(C)O[C@@H]2C[C@H]3[C@@H]4CCC5=CC(=O)C=C[C@]5(C)[C@H]4[C@@H](O)C[C@]3(C)[C@]2(C(=O)CO)O1; result = 106%
SMILES = CO/N=C(\C(=O)N[C@@H]1C(=O)N2C(C(=O)O)=C(COC(N)=O)CS[C@H]12)c1ccco1; result = 84.2%
SMILES = Oc1c(Cl)cc(Cl)cc1Sc1cc(Cl)cc(Cl)c1O; result = 34.5%
SMILES = CCCCCCCCCCCCCCCC[N+](C)(C)C; result = 15.8%
SMILES = CN[C@@H]1[C@H](O[C@H]2[C@H](O[C@H]3[C@H](O)[C@@H](O)[C@H](N=C(N)N)[C@@H](O)[C@@H]3N=C(N)N)O[C@@H](C)[C@]2(O)CO)O[C@@H](CO)[C@H](O)[C@H]1O; result = 93.9%
SMILES = CCOC(=O)[C@H](CCc1ccccc1)N[C@@H](C)C(=O)N1CCC[C@H]1C(=O)O; result = 91.4%
SMILES = CCCCOC(=O)c1ccc(O)cc1; result = 102%
SMILES = Nc1ncnc2c1ncn2[C@@H]1O[C@H](CO)[C@@H](O)[C@H]1O; result = 96%
SMILES = CN(C)CCC=C1c2ccccc2C=Cc2ccccc21; result = 96.7%
SMILES = CN[C@@H]1[C@@H](O[C@H]2O[C@H](CO)[C@@H](N)[C@H](O)[C@H]2O)O[C@H]2C[C@@H](N)[C@@H](O[C@H]3[C@H](O)[C@@H](O)[C@H](N)C[C@@H]3N)O[C@@H]2[C@@H]1O; result = 88.5%

Set 2 — endpoint: Kd
SMILES: CC(C)CCN1c2nc(Nc3cc(F)c(O)c(F)c3)ncc2N(C)C(=O)C1C (stereo not shown)
target = Tyrosine-protein kinase JAK1, JH2 pseudokinase domain (JAK1, Homo sapiens, UniProt P23458); result = 63 nM
target = KIT (Homo sapiens, UniProt P10721, V559D/V654A); result = 37 nM
target = TNIK (Homo sapiens, UniProt Q9UKE5); result = 110 nM
target = MYLK (Homo sapiens, UniProt Q15746); result = > 3000 nM
target = BMPR2 (Homo sapiens, UniProt Q13873); result = 65 nM
target = TAOK1 (Homo sapiens, UniProt Q7L7X3); result = 94 nM
target = Bromodomain-containing protein 4, BD1 (BRD4, Homo sapiens, UniProt O60885); method = ITC; temperature = 15 °C; result = 3550 ± 178 nM

Set 3 — Compound: CNc1cc2c(Nc3cccc(Br)c3)ncnc2cn1; effect on: enzyme activity; mode: inhibitor; tested at: 0.5 µM; relative to: control; endpoint: remaining activity
target = MET (Homo sapiens, UniProt P08581); result = 106%
target = KDR (Homo sapiens, UniProt P35968); result = 77.6%
target = CAMK4 (Homo sapiens, UniProt Q16566); result = 104%
target = MAPK11 (Homo sapiens, UniProt Q15759); result = 115%
target = Cyclin-dependent kinase 9, with cyclin K (CDK9, Homo sapiens, UniProt P50750); result = 105%
target = NEK3 (Homo sapiens, UniProt P51956); result = 101%
target = CLK4 (Homo sapiens, UniProt Q9HAZ1); result = 60.9%
target = PLK3 (Homo sapiens, UniProt Q9H4B4); result = 96.4%
target = CDC42BPB (Homo sapiens, UniProt Q9Y5S2); result = 107%
target = AKT2 (Homo sapiens, UniProt P31751); result = 99.6%
target = MARK2 (Homo sapiens, UniProt Q7KZI7); result = 90.9%
target = PRKG2 (Homo sapiens, UniProt Q13237); result = 102%
target = MINK1 (Homo sapiens, UniProt Q8N4C8); result = 91.9%
target = MAPK1 (Homo sapiens, UniProt P28482); result = 88.6%

Set 4 — effect on: cell-free assay; method: competition with immobilised ligand; tested at: 0.1 µM; endpoint: remaining binding
Structure (SMILES): C[C@@H]1CN(c2cc(-c3n[nH]c4ccc(OC5(C)CC5)cc34)ncn2)C[C@H](C)O1
target = MET (Homo sapiens, UniProt P08581, Y1235D); result = 92%
target = CSNK1G3 (Homo sapiens, UniProt Q9Y6M4); result = 95%
target = CDK15 (Homo sapiens, UniProt Q96Q40); result = 100%
target = PIK3CG (Homo sapiens, UniProt P48736); result = 72%
target = IGF1R (Homo sapiens, UniProt P08069); result = 100%
target = RET (Homo sapiens, UniProt P07949, V804M); result = 97%
target = GRK7 (Homo sapiens, UniProt Q8WTQ7); result = 64%
target = MAK (Homo sapiens, UniProt P20794); result = 95%
target = STK32B (Homo sapiens, UniProt Q9NY57); result = 92%

Excerpt of the above (set 1):
SMILES = CO/N=C(\C(=O)N[C@@H]1C(=O)N2C(C(=O)O)=C(COC(N)=O)CS[C@H]12)c1ccco1; result = 84.2%
SMILES = CCCCOC(=O)c1ccc(O)cc1; result = 102%
SMILES = CN[C@@H]1[C@@H](O[C@H]2O[C@H](CO)[C@@H](N)[C@H](O)[C@H]2O)O[C@H]2C[C@@H](N)[C@@H](O[C@H]3[C@H](O)[C@@H](O)[C@H](N)C[C@@H]3N)O[C@@H]2[C@@H]1O; result = 88.5%
SMILES = Nc1ncnc2c1ncn2[C@@H]1O[C@H](CO)[C@@H](O)[C@H]1O; result = 96%
SMILES = CCOC(=O)[C@H](CCc1ccccc1)N[C@@H](C)C(=O)N1CCC[C@H]1C(=O)O; result = 91.4%
